Measured values collected from several papers.
Several values in a cell are separate wells, animals, samples, runs or records. ± marks the error that the study gave.
STING1 H232R: Stimulator of interferon genes protein (STING1, Homo sapiens, UniProt Q86WV6, H232R)
MAPK8: Mitogen-activated protein kinase 8 (MAPK8, Homo sapiens, UniProt P45983)

O=C(NC1CCCS(=O)(=O)c2ccccc21)c1ccc2nc(O)cnc2c1 (centres unmarked)  binding (WD repeat-containing protein 91 (Homo sapiens, UniProt A4D1P6); binder, spectral shift; concentration not given): no binding
C#CCOC(=O)[C@]1(C)C=C(C(=O)OC(C)(C)C)C(=O)CC1  normalized kinase activity (Mitogen-activated protein kinase 1 (MAPK1, Homo sapiens, UniProt P28482); enzyme activity, D-SENSOR; 14.81 µM, single replicate): 0.64 and 0.561 and 0.789
CC(C)C[C@@H]1NC(=O)[C@H](Cc2ccccc2)NC(=O)CSC[C@@H](C(=O)NCC(N)=O)NC(=O)[C@H](C(C)C)NC(=O)[C@H](Cc2ccccc2)NC(=O)[C@H](Cc2ccc(O)cc2)NC(=O)[C@H](C(C)C)NC(=O)[C@H](CC(=O)O)NC(=O)[C@H](Cc2ccccc2)NC(=O)[C@H](CCCNC(=N)N)NC(=O)[C@H](Cc2ccccc2)N(C)C(=O)[C@H](C)NC(=O)[C@H](Cc2ccccc2)NC(=O)[C@H](C(C)C)NC1=O  ΔTm (STING1 H232R; thermal stability, DSF; 50 µM): 0.1 °C
CCCCCCCCCCCCC/C=C/C=O  isoTOP-ABPP competition ratio (Elongation factor 2, Cys41 (EEF2, Homo sapiens, UniProt P13639); competitive isoTOP-ABPP; proteome, soluble, MDA-MB-231; 100 µM, 60 min, together with: iodoacetamide probe; relative to: DMSO over compound-treated, higher = stronger cysteine blockade): 1.3
N=C(N)NCCC[C@H](NC(=O)[C@@H]1CCCN1C(=O)[C@H](CCCNC(=N)N)NC(=O)[C@@H]1CCCN1C(=O)[C@H](CCCNC(=N)N)NC(=O)[C@@H]1CCCN1C(=O)[C@H](CCCNC(=N)N)NC(=O)[C@@H]1CCCN1C(=O)[C@H](CCCNC(=N)N)NC(=O)[C@@H]1CCCN1C(=O)[C@H](CCCNC(=N)N)NC(=O)[C@@H]1CCCN1C(=O)[C@H](CCCNC(=N)N)NC(=O)[C@@H]1CCCN1C(=O)[C@H](CCCNC(=N)N)NC(=O)[C@@H]1CCCN1C(=O)[C@H](CCCNC(=N)N)NC(=O)[C@@H]1CCCN1C(=O)[C@H](CCCNC(=N)N)NC(=O)[C@@H]1CCCN1C(=O)[C@H](CCCNC(=N)N)NC(=O)[C@@H]1CCCN1C(=O)[C@H](CCCNC(=N)N)NC(=O)[C@@H]1CCCN1C(=O)[C@H](CCCNC(=N)N)NC(=O)[C@@H]1CCCN1C(=O)[C@H](CCCNC(=N)N)NC(=O)[C@@H]1CCCN1C(=O)[C@H](CCCNC(=N)N)NC(=O)[C@@H]1CCCN1C(=O)[C@H](CCCNC(=N)N)NC(=O)[C@@H]1CCCN1C(=O)[C@H](CCCNC(=N)N)NC(=O)[C@@H]1CCCN1C(=O)[C@H](CCCNC(=N)N)NC(=O)[C@@H]1CCCN1C(=O)[C@H](CCCNC(=N)N)NC(=O)[C@@H]1CCCN1C(=O)[C@H](CCCNC(=N)N)NC(=O)[C@@H]1CCCN1C(=O)[C@H](CCCNC(=N)N)NC(=O)[C@@H]1CCCN1C(=O)[C@H](CCCNC(=N)N)NC(=O)[C@@H]1CCCN1C(=O)[C@H](CCCNC(=N)N)NC(=O)[C@@H]1CCCN1C(=O)[C@H](Cc1ccc(O)cc1)NC(=O)[C@H](CO)NC(=O)CN)C(=O)O  maximum particle dimension (Nucleophosmin (NPM1, Homo sapiens, UniProt P06748); SANS; 2 molar excess over NPM1, 25 °C): 299 Å
CC(/C=C/C(=O)NO)=C\[C@@H](C)C(=O)c1ccc(N(C)C)cc1  binding stoichiometry (Histone deacetylase 8 (HDAC8, Homo sapiens, UniProt Q9BY41); ITC; Tris buffer; concentration not given, pH 7.5): 0.8
COC1CN([C@H]2CC[C@H]([C@@]3(C)Oc4c(Cl)cc(C(=O)NCc5c(SC)cc(C)[nH]c5=O)c(C)c4O3)CC2)C1  residence time (Histone-lysine N-methyltransferase EZH2 (EZH2, Homo sapiens, UniProt Q15910); binding; basal PRC2 without H3K27me3 peptide): 4380 min
COc1cc(-c2cn(C)c(=O)c3cnccc23)cc(OC)c1CN(C)C  ΔTm (Bromodomain testis-specific protein, BD2 (BRDT, Homo sapiens, UniProt Q58F21)): -2.4 °C
CC(C)(C)OC(=O)C1=C[C@@](C)(C(=O)OCC#Cc2ccncc2)CCC1=O  fraction bound (MAPK8; D-peptide binding, inhibitor, FP peptide displacement; 50 µM; lower is stronger displacement): 0.255
CC(=O)N1c2ccc(-c3ccc(CNC(=O)c4cn5cc(-c6cnc(N)nc6)nc(N6CCOCC6)c5n4)cc3)cc2CC[C@@H]1C  remaining binding (Transcription initiation factor TFIID subunit 1-like, BD2 (TAF1L, Homo sapiens, UniProt Q8IZX4); binding, competition with immobilised ligand; 10 µM): 2.7%
CC1(C)CN(C(=O)Cn2c(=O)c(C(=O)NCc3ccc(Cl)cc3)cc3cccnc32)C1  Hill slope (DNA polymerase catalytic subunit (Human cytomegalovirus, UniProt P08546); enzyme activity, inhibitor): 0.7
N=C(N)NCCC[C@@H]1NC(=O)[C@H](Cc2ccccc2)NC(=O)CSC[C@@H](C(=O)N[C@@H](CC(=O)O)C(N)=O)NC(=O)[C@H](CCCNC(=N)N)NC(=O)[C@H](Cc2c[nH]c3ccccc23)NC(=O)[C@H](Cc2ccc(O)cc2)NC(=O)[C@H](Cc2ccc(O)cc2)NC(=O)[C@H](Cc2ccccc2)NC1=O  ΔTm (STING1 H232R; thermal stability, DSF; 200 µM): 8.83 °C
C[C@@H]1C[C@H](Nc2ccccc2)c2cc(F)ccc2N1C(=O)c1ccc(Cl)c(F)c1  pIC50 Z-score (Ecdysone receptor (Aedes albopictus, UniProt Q9U3Y4); ligand binding, inhibitor; intact cells; together with: [3H]ponasterone A; direction not given): 0.83
CCC1(CC)C(=O)N(c2cccc(CCC(=O)O)c2)C1=O.O=C(O)C(F)(F)F  activity vs control (Dipeptidyl peptidase 8 (Homo sapiens, UniProt Q6V1X1); enzyme activity, inhibitor; 5 µM): 20%
CC(C)(C)OC(=O)N1CCN(CC(OCc2ccc(Cl)cc2)c2ccc(Cl)cc2Cl)CC1 (centres unmarked)  activity vs control (Serine/threonine-protein kinase ULK1 (ULK1, Homo sapiens, UniProt O75385); enzyme activity, inhibitor, ADP detection; 0.1 µM): 133%
CC(=O)C12NC(C)(C)CC1(C)C(=O)C1=C2c2c(c3c4n2C(C)(C)CC2=C4C4(CC(C)(C)NC(C)(C4)C2=O)CC3(C)C)C(=O)C(C)(C)N1 (single isomer, unassigned; (+))  activation (P2X purinoceptor 7 (P2RX7, Homo sapiens, UniProt Q99572); ion current, agonist, whole-cell patch clamp; HEK293T; 10 µM): 1.27%
CCOC(=O)C(CC)(CCCSCCOCCOCCNC(=O)OC(C)(C)C)NC(=O)c1ccc(C2CC2)c(Cc2ccc(F)cc2)n1 (racemic)  Emax (Cannabinoid receptor 2 (Cnr2, Mus musculus, UniProt P47936); cAMP, agonist): 81%
N#Cc1ccc(-c2ccc(/C=N/OCc3ccc(-c4nc5cc(-c6ccccc6)ccn5c4Nc4ccc(C(=O)O)cc4)cc3)cc2)nc1  selectivity ratio (Tyrosyl-DNA phosphodiesterase 2 (TDP2, Homo sapiens, UniProt O95551); relative to: TDP1 IC50 over TDP2 IC50): 74
CCCCCC(O)/C=C/C=O (centres unmarked)  isoTOP-ABPP competition ratio (TBC1 domain family member 13 (TBC1D13, Homo sapiens, UniProt Q9NVG8); competitive isoTOP-ABPP; Ramos soluble proteome; 100 µM, 60 min, together with: iodoacetamide probe; relative to: DMSO over compound-treated, higher = stronger cysteine blockade): 1.3
O=C(CCN(Cc1cccnc1)Cc1cccnc1)NO  remaining activity (Astacin-like metalloendopeptidase (Astl, Mus musculus, UniProt Q6HA09); enzyme activity, inhibitor, fluorogenic; 5 µM): 63 ± 6%
Fc1ccc(Nc2nc(NC3CCCCC3)c3cc(Br)ccc3n2)cc1F  bias factor (Beta-2 adrenergic receptor (ADRB2, Homo sapiens, UniProt P07550); β-arrestin2 recruitment, PathHunter and GloSensor; relative to: GloSensor IC50 over PathHunter IC50): 903 fold
COC(=O)C1(C)C=C(C(=O)OC(C)(C)C)C(=O)CC1 (centres unmarked)  fraction bound (MAPK8; competitor, fluorescence polarization; 3.906 µM, together with: D-peptide tracer): 0.949
Cc1cn(CC(=O)N(CC(=O)N[C@H]2CCC[C@@H]2N(CC(=O)N[C@H]2COC[C@@H]2N(CC(=O)N[C@H]2COC[C@@H]2N(CC(=O)N[C@H]2COC[C@@H]2N(CC(=O)NCCOCCOCC(N)=O)C(=O)Cn2cnc3c(N)ncnc32)C(=O)Cn2cc(C)c(=O)[nH]c2=O)C(=O)Cn2cnc3c(N)ncnc32)C(=O)Cn2cnc3c(=O)[nH]c(N)nc32)[C@H]2CCC[C@@H]2NC(=O)CN(C(=O)Cn2cnc3c(=O)[nH]c(N)nc32)[C@H]2CCC[C@@H]2NC(=O)CN(C(=O)Cn2cc(C)c(=O)[nH]c2=O)[C@H]2COC[C@@H]2NC(=O)CN(C(=O)Cn2cnc3c(N)ncnc32)[C@H]2COC[C@@H]2NC(=O)CN(C(=O)Cn2cnc3c(=O)[nH]c(N)nc32)[C@H]2COC[C@@H]2N)c(=O)[nH]c1=O  Tm (complementary RNA; duplex formation, UV melting curve fit; PBS; 1 µM, fit parameter α 0.5): 78 ± 0.3 °C
CNC(=O)C[C@H](Cc1ccc(C#N)cc1)NC(=O)c1cc(-c2ccc(CN[C@H](C)c3ccc(C)cc3)o2)ccc1Cl  activity vs control (Transcription initiation factor TFIID subunit 1-like (TAF1L, Homo sapiens, UniProt Q8IZX4); enzyme activity, inhibitor; 1 µM): 104%
CC(C)Oc1cc(Cl)ccc1CNc1cc(-c2ccccc2)nc2ncnn12  cAMP luminescence (G-protein coupled receptor 3 (GPR3, Homo sapiens, UniProt P46089, L136A); cAMP level, cAMP GloSensor; 1 µM; higher = more cAMP): 45200 a.u. and 43400 a.u. and 34100 a.u. and 46700 a.u.
C[Si](C)(C)C[C@H](CN)CC(=O)O  inhibition (Galanin receptor type 1 (GALR1, Homo sapiens, UniProt P47211); enzyme activity, inhibitor; 250 µM): 0%

Repeated from above:
N=C(N)NCCC[C@@H]1NC(=O)[C@H](Cc2ccccc2)NC(=O)CSC[C@@H](C(=O)N[C@@H](CC(=O)O)C(N)=O)NC(=O)[C@H](CCCNC(=N)N)NC(=O)[C@H](Cc2c[nH]c3ccccc23)NC(=O)[C@H](Cc2ccc(O)cc2)NC(=O)[C@H](Cc2ccc(O)cc2)NC(=O)[C@H](Cc2ccccc2)NC1=O  ΔTm (STING1 H232R; thermal stability, DSF; 200 µM): 8.83 °C
CC(C)C[C@@H]1NC(=O)[C@H](Cc2ccccc2)NC(=O)CSC[C@@H](C(=O)NCC(N)=O)NC(=O)[C@H](C(C)C)NC(=O)[C@H](Cc2ccccc2)NC(=O)[C@H](Cc2ccc(O)cc2)NC(=O)[C@H](C(C)C)NC(=O)[C@H](CC(=O)O)NC(=O)[C@H](Cc2ccccc2)NC(=O)[C@H](CCCNC(=N)N)NC(=O)[C@H](Cc2ccccc2)N(C)C(=O)[C@H](C)NC(=O)[C@H](Cc2ccccc2)NC(=O)[C@H](C(C)C)NC1=O  ΔTm (STING1 H232R; thermal stability, DSF; 50 µM): 0.1 °C
CC(=O)N1c2ccc(-c3ccc(CNC(=O)c4cn5cc(-c6cnc(N)nc6)nc(N6CCOCC6)c5n4)cc3)cc2CC[C@@H]1C  remaining binding (Transcription initiation factor TFIID subunit 1-like, BD2 (TAF1L, Homo sapiens, UniProt Q8IZX4); binding, competition with immobilised ligand; 10 µM): 2.7%
